# Measurements collected from several papers.
# Compare with care: the assays were run in different laboratories. Values joined by “and” are separate records of one study, mostly repeats; a detail may differ. ± gives the spread as reported.
# BCHE: Cholinesterase (BCHE, Homo sapiens, UniProt P06276)
# Chain of UniProt P06276 (whole entry, looked up): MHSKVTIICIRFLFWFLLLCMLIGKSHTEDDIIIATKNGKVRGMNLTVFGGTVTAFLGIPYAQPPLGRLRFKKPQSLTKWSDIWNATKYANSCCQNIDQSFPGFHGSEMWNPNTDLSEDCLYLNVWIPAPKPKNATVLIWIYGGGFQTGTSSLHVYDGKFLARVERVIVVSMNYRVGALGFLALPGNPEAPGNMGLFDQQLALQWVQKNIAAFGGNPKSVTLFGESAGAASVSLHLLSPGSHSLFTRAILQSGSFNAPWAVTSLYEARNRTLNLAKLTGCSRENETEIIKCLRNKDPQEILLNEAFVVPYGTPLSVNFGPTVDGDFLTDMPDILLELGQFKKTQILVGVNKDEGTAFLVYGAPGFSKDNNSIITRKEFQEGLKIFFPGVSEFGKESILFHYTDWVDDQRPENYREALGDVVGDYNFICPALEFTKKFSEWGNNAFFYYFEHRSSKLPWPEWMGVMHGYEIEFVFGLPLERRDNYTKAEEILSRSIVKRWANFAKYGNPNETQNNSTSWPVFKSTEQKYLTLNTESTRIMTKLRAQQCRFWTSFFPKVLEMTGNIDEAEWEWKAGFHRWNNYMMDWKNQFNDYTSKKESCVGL
# Chain of UniProt Q9C0E2 (whole entry, looked up): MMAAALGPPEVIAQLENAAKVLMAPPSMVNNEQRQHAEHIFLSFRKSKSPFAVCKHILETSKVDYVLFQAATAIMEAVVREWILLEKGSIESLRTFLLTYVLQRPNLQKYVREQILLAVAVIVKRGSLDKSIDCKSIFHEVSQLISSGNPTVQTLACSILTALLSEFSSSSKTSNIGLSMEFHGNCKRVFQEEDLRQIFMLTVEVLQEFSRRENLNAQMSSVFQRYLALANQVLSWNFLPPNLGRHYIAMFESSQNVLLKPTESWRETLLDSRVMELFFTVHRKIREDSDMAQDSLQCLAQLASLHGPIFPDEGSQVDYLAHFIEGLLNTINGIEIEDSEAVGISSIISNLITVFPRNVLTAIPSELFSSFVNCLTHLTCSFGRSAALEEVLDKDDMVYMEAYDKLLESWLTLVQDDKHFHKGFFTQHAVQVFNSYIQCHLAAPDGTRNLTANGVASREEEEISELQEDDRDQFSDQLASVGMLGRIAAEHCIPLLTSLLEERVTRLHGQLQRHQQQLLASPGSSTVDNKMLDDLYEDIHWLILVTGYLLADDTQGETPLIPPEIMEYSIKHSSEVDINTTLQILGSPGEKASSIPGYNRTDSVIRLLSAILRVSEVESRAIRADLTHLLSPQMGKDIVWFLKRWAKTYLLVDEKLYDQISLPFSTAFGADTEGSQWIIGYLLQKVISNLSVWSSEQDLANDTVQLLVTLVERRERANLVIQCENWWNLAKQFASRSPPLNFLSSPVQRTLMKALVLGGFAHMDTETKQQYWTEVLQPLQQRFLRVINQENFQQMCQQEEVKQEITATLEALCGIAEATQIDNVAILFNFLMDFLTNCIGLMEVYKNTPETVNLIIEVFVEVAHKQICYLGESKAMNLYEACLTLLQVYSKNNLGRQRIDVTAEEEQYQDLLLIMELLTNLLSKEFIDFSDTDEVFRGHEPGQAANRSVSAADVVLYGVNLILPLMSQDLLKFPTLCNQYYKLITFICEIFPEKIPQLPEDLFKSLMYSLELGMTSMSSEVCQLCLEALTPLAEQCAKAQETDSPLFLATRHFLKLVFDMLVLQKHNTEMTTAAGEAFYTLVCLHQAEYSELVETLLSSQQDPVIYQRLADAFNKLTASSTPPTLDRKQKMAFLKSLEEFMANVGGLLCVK
SMILES,tested on,test,test system,setting,how to read,measurement,value
Clc1ccc(Cl)c(-c2cc(Cl)c(Cl)cc2Cl)c1,,,fresh water,20 °C,,log K(PDMS-water),5.98 ± 0.04
COc1ccc2c(c1)CN(C(=O)CCN1CCC(Cc3ccccc3)CC1)CC[S@@+]2[O-],,,"female Beagle dogs, chronic AV block, plasma","intravenous, 3 mg/kg, end of 10 min infusion",,plasma concentration,2140 ± 273 ng/mL
O=C(Nc1ccccc1)C1CCN(C(=O)Oc2cccnc2)CC1,,Bond-Lader VAS,healthy women,"oral, 60 mg","relative to: pre-dose baseline, direction not given",change in withdrawn–gregarious score,6.4
CC[C@H](C)[C@H](NC(=O)[C@H](Cc1ccccc1)NC(=O)[C@H](CCC(=O)O)NC(=O)[C@H](CCCNC(=N)N)NC(=O)[C@H](C)NC(=O)[C@H](C)NC(=O)[C@H](CCC(N)=O)NC(=O)[C@H](CCC(=O)O)NC(=O)[C@H](CCC(=O)O)NC(=O)[C@H](CC(C)C)NC(=O)[C@H](Cc1ccc(O)cc1)NC(=O)[C@H](CO)NC(=O)[C@H](CO)NC(=O)[C@@H](NC(=O)[C@H](CC(=O)O)NC(=O)[C@H](CO)NC(=O)[C@@H](NC(=O)[C@H](Cc1ccccc1)NC(=O)[C@@H](NC(=O)CNC(=O)[C@H](CCC(=O)O)NC(=O)[C@H](C)NC(=O)CCc1cnc[nH]1)[C@@H](C)O)[C@@H](C)O)C(C)C)C(=O)N[C@@H](C)C(=O)N[C@@H](Cc1c[nH]c2ccccc12)C(=O)N[C@@H](CC(C)C)C(=O)N[C@H](C(=O)N[C@@H](CCCNC(=N)N)C(=O)NCC(=O)N[C@@H](CCCNC(=N)N)C(=O)N[C@@H](CCCCNC(=O)COCCOCCNC(=O)COCCOCCNC(=O)CC[C@H](NC(=O)CCCCCCCCCCCCCCCCC(=O)O)C(=O)O)C(=O)NCC(=O)NCC(=O)N[C@@H](CO)C(=O)N[C@@H](CCCCNC(=O)[C@H](CCCCNc1c(NCCCCCN(O)C(=O)CCC(=O)NCCCCCN(O)C(=O)CCC(=O)NCCCCCN(O)C(C)=O)c(=O)c1=O)Nc1c(NCCCCCN(O)C(=O)CCC(=O)NCCCCCN(O)C(=O)CCC(=O)NCCCCCN(O)C(C)=O)c(=O)c1=O)C(=O)O)C(C)C [zirconium-89 labelled],,ex vivo gamma counting,"Sprague-Dawley rat, male, intestine","intravenous, 1 nmol, 24 h",,tissue uptake,0.223 %ID/g and 0.185 %ID/g and 0.163 %ID/g and 0.182 %ID/g and 0.211 %ID/g
COc1ccc(-c2oc3cc(OC)cc(OC)c3c(=O)c2OC)cc1,,HPLC,ethanol:butylene glycol 50:50,,,solubility,6367 ± 18 ppm
COc1ccnc(C(=O)N[C@H]2COC(=O)[C@H](Cc3ccccc3)[C@@H](OC(=O)C(C)C)[C@H](C)OC2=O)c1OCOC(=O)C(C)C,,,bovine muscle,-18 °C,,storage stability,7 months
C[C@H]1CN(c2n[nH]c3nc(N[C@H]4CC[C@H](NS(=O)(=O)CCC(F)(F)F)CC4)ncc23)CCO1,"Exportin-4 (Homo sapiens, UniProt Q9C0E2)",biochemical,,,,IC50,≥ 20 µM
CC(C)C[C@H](NC(=O)[C@H](CCCCN)NC(=O)OCC1c2ccccc2-c2ccccc21)C(=O)N[C@H](C(=O)N[C@@H](Cc1ccccc1)C(=O)N[C@@H](Cc1ccccc1)C(=O)N[C@@H](CCCCN)C(=O)NCC(=O)N[C@@H](Cc1ccccc1)C(=O)N[C@@H](C)C(=O)N[C@@H](Cc1c[nH]c2ccccc12)C(=O)N[C@@H](CC(N)=O)C(=O)N[C@H](C(=O)N[C@H]1CSSC[C@@H](C(=O)N[C@@H](Cc2c[nH]cn2)C(=O)N[C@@H](CCCNC(=N)N)C(=O)N[C@@H](CCCNC(=N)N)C(=O)N[C@@H](C)C(=O)N[C@@H](CC(N)=O)C(N)=O)NC(=O)[C@H](C(C)C)NC(=O)[C@H](CCCNC(=N)N)NC(=O)[C@H](C(C)C)NC(=O)CNC(=O)[C@H](CC(N)=O)NC(=O)[C@H](CCCNC(=N)N)NC(=O)[C@H](Cc2ccc(O)cc2)NC(=O)[C@H](C(C)C)NC1=O)C(C)C)C(C)C,,,"ICR mouse, blood","intramammary, 10 mg/kg, day 5, 3 d dosing",,haematocrit,39.7 ± 0.53%
c1cc2ccc3cccc4ccc(c1)c2c34,,,fresh water,"12 (unit not given), 20 °C, S30-1 sampler, 30 µm",,log K(PDMS-water),4.3 ± 0.05
Clc1ccc(-c2ccccc2)cc1,,,"Sprague-Dawley rats, female, serum","inhalation, 23 µg/rat, 1 h after exposure",,chloride,90 ± 4 mmol/L
CN1CCC[C@@H]1Cc1c[nH]c2ccc(CCS(=O)(=O)c3ccccc3)cc12,BCHE,inhibitor,,with Triton,,IC50,16.1 ± 9.71 µM
COc1ccc(C[C@@H]2NC(=O)[C@H]([C@@H](C)O)NC(=O)[C@@H]3[C@@H]4CCN3C(=O)[C@@H]3Cc5cn(c6ccc(F)cc56)CCCCCCN(Cc5ccc(cc5)CCNC(=O)[C@]5(C)CCCN5C2=O)C(=O)CCC(=O)N[C@@H](C)C(=O)N[C@H](CNC(=O)CCCCC[N+](C)(C)C)C(=O)N[C@@H](Cc2cccc(c2)CNC(=O)CO4)C(=O)N3)cc1,,refers to: tooth abscess,human,dose not given,,participants with adverse event,2%
C[C@]12C=CC(=O)C=C1CC[C@@H]1C2=CC[C@]2(C)[C@@H](C(=O)CN3CCN(c4cc(N5CCCC5)nc(N5CCCC5)n4)CC3)CC[C@@H]12,Plasmodium falciparum,,HB3,,,IC50,1.26 µM
CC[C@H](C)[C@H](NC(=O)[C@H](C)NC(=O)[C@H](CCCCN)NC(=O)[C@H](CC(C)C)NC(=O)[C@H](C)NC(=O)[C@@H](NC(=O)[C@H](Cc1c[nH]cn1)NC(=O)[C@H](CC(C)C)NC(=O)[C@@H](NC(=O)[C@@H](NC(=O)[C@H](CCCCN)NC(=O)[C@H](C)NC(=O)[C@H](C)NC(=O)[C@H](CO)NC(=O)[C@H](CCCCN)NC(=O)[C@H](Cc1ccccc1)NC(=O)[C@@H](NC(=O)[C@H](CCCCN)NC(=O)[C@H](CC(C)C)NC(=O)[C@H](Cc1ccccc1)NC(=O)[C@H](CO)NC(=O)[C@H](CCCCN)NC(=O)[C@H](Cc1c[nH]c2ccccc12)NC(=O)[C@H](CCCCN)NC(C)=O)[C@@H](C)O)[C@@H](C)O)C(C)C)[C@@H](C)O)C(=O)N[C@@H](CO)C(=O)N[C@@H](CO)C(N)=O,,,BALB/c mouse,"topical on skin, dose not given",,fraction of applied dose absorbed systemically,~3.4%
Clc1ccc(-c2ccc(Cl)c(Cl)c2)cc1Cl,,,fresh water,"20 °C, S30-2 sampler, 30 µm",,log K(PDMS-water),5.58 ± 0.02
CO[C@H]1C[C@@H]2CC[C@@H](C)[C@@](O)(O2)C(=O)C(=O)N2CCCC[C@H]2C(=O)O[C@H]([C@H](C)C[C@@H]2CC[C@@H](OC(=O)NCCOCCOCCOCCOCCOCCOCCOCCOCCC(=O)N3CCc4cc(Cn5nc(-c6ccc7oc(N)nc7c6)c6c(N)ncnc65)ccc4C3)[C@H](OC)C2)C[C@@H](O)[C@H](C)/C=C(\C)[C@@H](O)[C@@H](OC)C(=O)[C@H](C)C[C@H](C)/C=C/C=C/C=C/1C,,,patients with advanced solid tumours,"intravenous, 16 mg weekly, grade 3 or higher",,anaemia incidence,25%
CN1CC[C@@H](c2c(O)cc(O)c3c(=O)cc(-c4ccc(C(F)(F)F)cc4Cl)oc23)[C@@H]1CO,,refers to: Constipation,B-cell malignancies,"oral, 100 mg, intermittent dosing",,patients with adverse event,0%
CC(C)C[C@@H]1NC(=O)CNC(=O)[C@H](CC(N)=O)NC(=O)[C@H](CCCNC(=N)N)NC(=O)[C@H]([C@@H](C)O)NC(=O)[C@@H]2CSSC[C@@H]3NC(=O)[C@H]([C@@H](C)O)NC(=O)CNC(=O)CNC(=O)[C@H](C(C)C)NC(=O)[C@@H]4CSSC[C@H](NC(=O)[C@H]([C@@H](C)O)NC(=O)[C@H](CSSC[C@H](NC(=O)[C@H](C(C)C)NC(=O)[C@@H]5CCCN5C1=O)C(=O)NCC(=O)N[C@@H](CCCCN)C(=O)N[C@@H]([C@@H](C)O)C(=O)N4)NC(=O)CNC(=O)[C@@H]1CCCN1C(=O)[C@H]([C@@H](C)O)NC(=O)[C@H](CC(N)=O)NC3=O)C(=O)N[C@@H](CO)C(=O)N[C@@H](Cc1c[nH]c3ccccc13)C(=O)N1CCC[C@H]1C(=O)N[C@@H](C(C)C)C(=O)N2,,HPLC,ammonium bicarbonate,"180 µM, 7 days, pH 9.0, 25 °C, deamidation stability",,remaining peptide,81.3 ± 1.4%
N=C(N)NCCNC(=O)C1(Nc2ccccc2)CCN(Cc2ccccc2)CC1,,,"Sprague-Dawley rat, male, urine","oral, 50 mg/kg, time not given",,unchanged urinary recovery,0.2%
CC(C)C1CCC(N2CCC(N3C(=O)C(=O)c4ccccc43)CC2)CC1 (centres unmarked),,,conscious Sprague-Dawley rat,"intravenous bolus, 100 nmol/kg",,persistence of sedation,~30 min
CN[C@H]1CC[C@@H](c2ccc(Cl)c(Cl)c2)c2ccccc21,,,"CD-1 mouse, male, plasma","intraperitoneal, 10 mg/kg",,Tmax,30 min
CCOc1cc(Oc2ccc(C(F)(F)F)cc2Cl)ccc1[N+](=O)[O-],,,rat male,"62.5 mg/kg, 8 days",,body weight gain,73.4%
Cn1cncc1-c1c(F)cncc1NC(=O)c1c(N)nn2cc(F)cnc12,,,human patients,"oral, up to 40 mg once daily, 21 days",,platelet count decreased DLT,0%
COc1cc2c(Oc3ccc4[nH]c(C)cc4c3F)ccnc2cc1OCC1(N)CC1,,,paediatric recurrent refractory sarcoma,"concentration not given, whole group",,grade 1 or 2 Rash,14.7%
CC(C)n1cnc2c(NCCc3ccc(O)cc3)nc(-c3csc4ccccc34)nc21,BCHE,inhibitor,,with Triton,,IC50,18.8 ± 3.2 µM
O=S(=O)(Nc1ccccc1)c1ccc(NC(=S)Nc2ccccc2)cc1,,refers to: CK,"female mouse, blood","oral, 80 mg/kg daily, 14 days",,serum enzyme activity,3230 U/L
O=C1Nc2cc3[nH]nc(-c4ccncc4)c3cc2CN1Cc1ccccc1,,CTCAE v4.03,advanced solid tumour patients,"intravenous, 3.6 mg/kg, schedules 1/2",,patients with blurred vision,0%
CCc1ccc(CC/C=C/c2ccc3c(c2)C(=O)CC3)cc1,,,"Sprague-Dawley rat, male","oral, 450 mg/kg/day, 14 days",,Erythrocyte percentage,13.5%
COc1cccc2c1CCCC2CCCN1CCN(C2CCCCC2)CC1 (centres unmarked),,,"CD-1 mouse, male, lung","intraperitoneal, 0.3 mg/kg",,elimination rate constant,6.13e-05 s⁻¹
COc1c(OCCCN2CCOCC2)ccc2c1N=C(NC(=O)c1cnc(N)nc1)N1CCN=C21,,,"human, diabetic patients, baseline HbA1c above 6.5%","dose not given, after treatment",,HbA1c,7.3 ± 1.1%
NC(=O)[C@H]1CCN(c2ncnc(N)c2F)C[C@@H]1N1CCC[C@@H](Nc2cc(Cl)cc(C(F)(F)F)c2)C1=O,,,B-cell malignancy patients,"oral, 164 mg twice daily, dose",,any grade ≥3 adverse event,25%
NCC(=O)NCCC(c1ccccc1)c1ccccc1,Plasmodium falciparum,,Dd2,,,IC50,6.31 µM

# Some of these lines once more:
SMILES,tested on,test,test system,setting,how to read,measurement,value
Clc1ccc(Cl)c(-c2cc(Cl)c(Cl)cc2Cl)c1,,,fresh water,20 °C,,log K(PDMS-water),5.98 ± 0.04
COc1ccc2c(c1)CN(C(=O)CCN1CCC(Cc3ccccc3)CC1)CC[S@@+]2[O-],,,"female Beagle dogs, chronic AV block, plasma","intravenous, 3 mg/kg, end of 10 min infusion",,plasma concentration,2140 ± 273 ng/mL
O=C(Nc1ccccc1)C1CCN(C(=O)Oc2cccnc2)CC1,,Bond-Lader VAS,healthy women,"oral, 60 mg","relative to: pre-dose baseline, direction not given",change in withdrawn–gregarious score,6.4
CC[C@H](C)[C@H](NC(=O)[C@H](Cc1ccccc1)NC(=O)[C@H](CCC(=O)O)NC(=O)[C@H](CCCNC(=N)N)NC(=O)[C@H](C)NC(=O)[C@H](C)NC(=O)[C@H](CCC(N)=O)NC(=O)[C@H](CCC(=O)O)NC(=O)[C@H](CCC(=O)O)NC(=O)[C@H](CC(C)C)NC(=O)[C@H](Cc1ccc(O)cc1)NC(=O)[C@H](CO)NC(=O)[C@H](CO)NC(=O)[C@@H](NC(=O)[C@H](CC(=O)O)NC(=O)[C@H](CO)NC(=O)[C@@H](NC(=O)[C@H](Cc1ccccc1)NC(=O)[C@@H](NC(=O)CNC(=O)[C@H](CCC(=O)O)NC(=O)[C@H](C)NC(=O)CCc1cnc[nH]1)[C@@H](C)O)[C@@H](C)O)C(C)C)C(=O)N[C@@H](C)C(=O)N[C@@H](Cc1c[nH]c2ccccc12)C(=O)N[C@@H](CC(C)C)C(=O)N[C@H](C(=O)N[C@@H](CCCNC(=N)N)C(=O)NCC(=O)N[C@@H](CCCNC(=N)N)C(=O)N[C@@H](CCCCNC(=O)COCCOCCNC(=O)COCCOCCNC(=O)CC[C@H](NC(=O)CCCCCCCCCCCCCCCCC(=O)O)C(=O)O)C(=O)NCC(=O)NCC(=O)N[C@@H](CO)C(=O)N[C@@H](CCCCNC(=O)[C@H](CCCCNc1c(NCCCCCN(O)C(=O)CCC(=O)NCCCCCN(O)C(=O)CCC(=O)NCCCCCN(O)C(C)=O)c(=O)c1=O)Nc1c(NCCCCCN(O)C(=O)CCC(=O)NCCCCCN(O)C(=O)CCC(=O)NCCCCCN(O)C(C)=O)c(=O)c1=O)C(=O)O)C(C)C [zirconium-89 labelled],,ex vivo gamma counting,"Sprague-Dawley rat, male, intestine","intravenous, 1 nmol, 24 h",,tissue uptake,0.223 %ID/g and 0.185 %ID/g and 0.163 %ID/g and 0.182 %ID/g and 0.211 %ID/g
COc1ccc(-c2oc3cc(OC)cc(OC)c3c(=O)c2OC)cc1,,HPLC,ethanol:butylene glycol 50:50,,,solubility,6367 ± 18 ppm
